# Measured values collected from several papers.
# Lines come from different studies, so protocols differ. Values joined by “and” are separate records of one study, mostly repeats; a detail may differ. ± marks the error that the study gave.
SMILES,test,test system,setting,how to read,quantity,value
C=CC(=O)Nc1cc(Nc2nccc(-c3cn(C4CC4)c4ccccc34)n2)c(OC)cc1N(C)CCNC,freeze-thaw stability,rat plasma,"1 ng/mL, three freeze-thaw cycles",baseline: nominal concentration,relative error,-12.4%
CN1CCC[C@]1(C)/C=C/S(=O)(=O)NC(=O)Nc1c2c(cc3c1CCC3)CC=C2,,"human, plasma","oral, 100 mg twice daily of parent drug, day 14, metabolite of dosed drug",,Tmax at second steady-state dose,3 h
CC(C)(F)CC(NC(c1ccc(-c2ccc(S(C)(=O)=O)cc2)cc1)C(F)(F)F)C(=O)NCC#CBr (stereo not drawn),,PBS,"100 µM, 23 h, pH 7.45, 37 °C, with: cysteine 10 mM",,cysteine adduct formation,16%
CC[C@H](C)[C@@H]1NC(=O)[C@H](Cc2ccc(O)cc2)NC(=O)CCCSC[C@@H](C(=O)N(CC(=O)N[C@@H](CC(C)C)C(=O)NCC(N)=O)Cc2ccc(F)cc2)NC(=O)[C@H](CC(N)=O)NC(=O)[C@H](CCC(N)=O)NC1=O,,"human, plasma","intravenous, 20 µg, infusion",,AUC(0-inf),0.158 ng·h/mL
O=C(Nc1cnccc1-c1ccc([18F])cc1)c1ccnc(NC(=O)C2CC2)c1,,"mice, transgenic, GSK-3β, early-stage, lung","intravenous, dose not given, 120 min",,SUV,0.2
COc1cc(N2CCN(C(=O)C3CCCN3)CC2)ccc1Nc1ncc(Cl)c(Nc2ccccc2P(C)(C)=O)n1 (stereo not drawn),,"nude mice, NCI-H3122 xenograft","intraperitoneal, 10 mg/kg every other day, day 5",,body weight,24.7 g and 22.3 g and 24.1 g and 24.5 g and 27.7 g
CC(C)[C@H](NC(=O)[C@H](Cc1c[nH]c2ccccc12)NC(=O)[C@H](CCCNC(=N)N)NC(=O)[C@H](CCCNC(=N)N)NC(=O)[C@@H](NC(=O)[C@@H](NC(=O)[C@H](CCCNC(=N)N)NC(=O)[C@@H](NC(=O)[C@@H](NC(=O)[C@H](CCCNC(=N)N)NC(=O)[C@H](CCCNC(=N)N)NC(=O)[C@@H](NC(=O)[C@H](Cc1c[nH]c2ccccc12)NC(=O)[C@H](CCCNC(=N)N)NC(=O)[C@H](CCCNC(=N)N)NC(=O)[C@@H](NC(=O)[C@H](CCCNC(=N)N)NC(=O)[C@H](CCCNC(=N)N)NC(=O)[C@@H](NC(=O)[C@H](Cc1c[nH]c2ccccc12)NC(=O)[C@H](CCCNC(=N)N)NC(=O)[C@@H](N)CCCNC(=N)N)C(C)C)C(C)C)C(C)C)C(C)C)C(C)C)C(C)C)C(C)C)C(=O)N[C@@H](CCCNC(=N)N)C(=O)N[C@@H](CCCNC(=N)N)C(=O)O,,"CD1 mouse, urine","intravenous, 15 mg/kg, 0 to 6 h, [14C]-labelled compound",,urine volume,64 µL/day/g body weight
COc1cnc2cccc(N3CCc4c(cc(Cn5ccnc5)cc4-c4cn(C)nc4C(F)(F)F)C3=O)c2c1,,"male CD-1 mouse, plasma","oral, 10 mg/kg",,Cmax,2960 ng/mL
C=CC(=O)Nc1cc(Nc2nccc(-c3c[nH]c4ccccc34)n2)c(OC)cc1N(C)CCN(C)C,storage stability,human dried blood spot,"30 d, -80 °C, LLOQ level",,recovery,90.2%
CCCCN1C(=O)c2cccc3c(NCCCCCCN4CCOCC4)ccc(c23)C1=O,,acetonitrile,,,fluorescence lifetime,10.4 ns
Cc1ccc(CN2C(=O)/C(=N\c3ccc(Cl)cc3Br)c3ccccc32)cc1,,"mouse, blood",200 mg/kg,,granulocytes,43.4 ± 6.5%
Cc1cccc(Cn2ncc3c4cc(F)c(CN(C)C)cc4n(C)c3c2=O)n1,,"Dutch-belted rabbit, plasma","intravitreal, 100 µM vitreous, 0.04 days",,plasma concentration,3.32 ng/mL
Cc1nn(-c2nc3c(F)cc(F)cc3s2)c(O)c1C(c1ccc(C(F)(F)F)cc1)c1c(C)nn(-c2nc3c(F)cc(F)cc3s2)c1O,,"ICR mouse, plasma","intravenous, 5 mg/kg",,MRT(0-inf) observed,8.16 h and 5.44 h and 18.5 h
CC(=O)N[C@H](CC(=O)O)C(=O)N[C@H](Cc1c[nH]c2ccccc12)C(=O)N[C@H](Cc1ccccc1)C(=O)N[C@H](CCCCN)C(=O)N[C@H](C)C(=O)N[C@H](Cc1ccccc1)C(=O)N[C@H](Cc1ccc(O)cc1)C(=O)N[C@H](CC(=O)O)C(=O)N[C@H](CCCCN)C(=O)N[C@@H](C(=O)N[C@H](C)C(=O)N[C@H](CCC(=O)O)C(=O)N[C@H](CCCCN)C(=O)N[C@H](Cc1ccccc1)C(=O)N[C@H](CCCCN)C(=O)N[C@H](CCC(=O)O)C(=O)N[C@H](C)C(=O)N[C@H](Cc1ccccc1)C(N)=O)C(C)C,,"human, plasma","oral, 500 mg daily, 2 h post-dose, day 13",,plasma concentration,246 ng/mL
Cc1noc(C)c1Cn1cc(N2C(=O)CN(Cc3cccc(O[C@@H]4O[C@H](C(=O)O)[C@@H](O)[C@H](O)[C@H]4O)c3)C2=O)cn1,,"Sprague-Dawley rat, male","oral, 100 mg/kg of parent drug, 1 h",,plasma concentration,6640 ng/mL
CN1CCC[C@]1(C)/C=C/S(=O)(=O)NC(=O)Nc1c2c(cc3c1C(O)CC3)CCC2 (stereo partly drawn),,"human, plasma","oral, 100 mg twice daily of parent drug, day 14, metabolite of dosed drug",,Tmax at second steady-state dose,3 h
N=C(N)NCCC[C@@H]1NC(=O)[C@H](CO)NC(=O)[C@@H](NC(=O)[C@H](CO)NC(=O)[C@H](CO)NC(=O)[C@H](Cc2c[nH]c3ccccc23)NC(=O)CNC(=O)[C@H](CO)NC(=O)[C@@H](N)Cc2c[nH]c3ccccc23)CSSC[C@@H](C(=O)NCC(=O)O)NC(=O)[C@H](CO)NC1=O,,"patients, plasma","intravenous, 5 mg/kg, thrice weekly, mean",,volume of distribution (Vz),596 L
C=C(NC(=O)c1csc(-c2nc3c(cc2O)-c2nc(cs2)C(=O)NC(C(C)O)C(=O)NC(=C(C)OC)c2nc(cs2)C(=O)NC2c4nc(cs4)C(=O)NC(COC(=O)c4c5c6c(cccc6n4O)COC(=O)C(OC4CC(C)(O)C(N(C)C)C(C)O4)C2OC5)c2nc-3cs2)n1)C(N)=O (stereo not drawn),,"cynomolgus monkey, male, plasma","intravenous infusion, 3 mg/kg, multiple doses, day 7",,clearance,2.53 mL/min/kg
NS(=O)(=O)c1c(F)c(F)c(SCCc2ccccc2)c(F)c1F,,,sulfonamide group,,pKa,8.05
COc1cccc(OC)c1-c1cc(C(=O)NC2(C(=O)O)C3CC4CC(C3)CC2C4)nn1-c1ccc(C(=O)N(C)CCOCCN(C)C(=O)[C@H](CCCCNC(=O)[C@H](CC(C)C)NC(=O)C2OC2C(=O)O)NC(=O)CN2CCN(CC(=O)[O-])CCN(CC(=O)[O-])CCN(CC(=O)[O-])CC2)cc1C(C)C.[177Lu+3] (mixture of isomers),,"mouse, HT-29 xenograft, lung",24 h post injection,,tissue uptake,2.1 %ID/g
O[C@@H]1[C@@H](O)[C@H](n2cc(COc3ccc(-c4nncnn4)cc3)nn2)O[C@H](C[18F])[C@H]1O,,"BALB/c nude mouse, LS174T xenograft","intravenous, dose not given, 1 h, with: CC49-TCO pretargeting",,tumour to control tumour ratio,3
C=Cc1c(C)c2cc3nc(c(CC(=O)OCCOCCOCCOC)c4[nH]c(cc5nc(cc1[nH]2)C(C)=C5CC)c(C)c4C(=O)OCCOCCOCCOC)[C@@H](CCC(=O)OCCOCCOCCOC)[C@@H]3C,LC-MS,methanol-water 9:1,"1 h, pH 8.0",,compound loss,100%
O=C([O-])CN1CCN(CC(=O)[O-])CCN(CC(CCCc2ccccc2[N+](=O)[O-])N(CC(=O)[O-])CC(=O)[O-])CC1.[90Y+3] (stereo not drawn),TLC,human serum,"264 h, pH 7, 37 °C",,intact radiolabelled complex,99.6 ± 0.5%
COCC1CN(C2CCN(c3cc(OC)c(Nc4ncc(Br)c(Nc5ccc6c(c5P(C)(C)=O)OCCO6)n4)cc3C)CC2)C1,,EGFR-mutant NSCLC patients,"oral, 30 mg once daily",,grade ≥3 treatment-related AEs,0%
CCC1C(COc2nccc3cc(C(N)=O)c(OC)cc23)NC(=O)C1F (stereo not drawn),,"ICR mice, plasma","oral, 10 mg/kg",,AUC(0-t),163 ± 53 ng·h/mL
O=C(Nc1cnccc1-c1ccc([18F])nc1)c1ccnc(NC(=O)C2CC2)c1,,"FVB/NJ mouse, both sexes, liver","intravenous, 15 min, with: tariquidar 15 mg/kg iv",,SUV,8.62
COc1cccc(OC)c1-c1cc(C(=O)NC2(C(=O)O)C3CC4CC(C3)CC2C4)nn1-c1ccc(C(=O)N(C)CCCN(C)CCCN(C)C(=O)[C@H](CCCCNC(=O)[C@H](CC(C)C)NC(=O)C2OC2C(=O)O)NC(=O)CN2CCN(CC(=O)[O-])CCN(CC(=O)[O-])CCN(CC(=O)[O-])CC2)cc1C(C)C.[177Lu+3] (mixture of isomers),,"mouse, HT-29 xenograft, HT-29 tumour",72 h post injection,,tissue uptake,7.3 %ID/g
CC[C@H](C)[C@H](NC(=O)[C@H](CCCNC(=N)N)NC(=O)[C@H](Cc1c[nH]cn1)NC(=O)[C@@H](N)[C@@H](C)O)C(=O)N[C@@H](CC(C)C)C(=O)N[C@@H](CCCNC(=N)N)C(=O)N[C@@H](CCCNC(=N)N)C(=O)N[C@@H](CC(C)C)C(=O)N[C@@H](Cc1ccccc1)C(=O)N[C@@H](CC(N)=O)C(=O)N[C@@H](CC(C)C)C(=O)N[C@@H](CS)C(N)=O,metabolic cages,C57BL/6J mice,"ip, 5 mg/kg",,water intake,no effect
O=S(=O)(N[C@H]1CCC[C@@H](N2c3ccccc3CCc3ccccc32)[C@@H]1O)c1ccc(OC(F)(F)F)cc1,,mouse,"oral, 100 mg/kg, suspension formulation",,oral bioavailability,14%
C[C@H](C(=O)O)c1ccc(-c2ccccc2)c(F)c1,HPLC,solution,"concentration not given, 2 h, room temperature",,relative change of HPLC peak area,0.99%
Cc1cc(NC(=O)[C@H](O)c2cc(F)cc(F)c2)ccc1-c1cnc(N)c(C(=O)NC(C)C)c1,,"athymic nude Foxn1nu mouse, female, plasma","oral, 50 mg/kg",,dose-normalised Cmax,156 ng·kg/mL/mg
CCCC[C@H](NC(=O)CNC(=O)CNC(=O)[C@H](CCCCNC(=O)C(C)c1ccc(CC(C)C)cc1)NC(=O)CN1CCN(CC(=O)O)CCN(CC(=O)O)CCN(CC(=O)O)CC1)C(=O)N[C@H]1CC(=O)NCCCC[C@@H](C(N)=O)NC(=O)[C@H](Cc2c[nH]c3ccccc23)NC(=O)[C@H](CCCNC(=N)N)NC(=O)[C@@H](Cc2ccccc2)NC(=O)[C@H](Cc2c[nH]cn2)NC1=O (stereo partly drawn) [lutetium-177 labelled],,"C57 mice, tumour",2 h,baseline: muscle,tumour-to-tissue ratio,49.4
COc1ccnc(C(=O)N[C@H]2COC(=O)[C@H](Cc3ccccc3)[C@@H](OC(=O)C(C)C)[C@H](C)OC2=O)c1O,,water/sediment,"20 °C, whole system, longest, aerobic dark",,DT50,2.37 days
CCCN(C)c1cc(C(F)(F)F)nc(SCCC(=O)NCc2ccco2)n1,,"Wistar rat, anaesthetised with isoflurane","intraperitoneal, 25 mg/kg, 2 min",baseline: vehicle,systolic blood pressure,no effect
O=C(NS(=O)(=O)c1cccs1)c1cc2ccccc2n1Cc1ccc(Br)c2ccccc12,,"KM mouse, chronic hyperuricaemia model","dose not given, day 7",,body weight,28.4 g and 30 g and 28 g and 24.4 g and 27.2 g and 28.8 g
C=CC(=O)Nc1cc(Nc2nccc(-c3cn(C)c4ccccc34)n2)c(OC)cc1N(C)CCNC,storage stability,human plasma,"270 ng/mL, 24 h, -80 °C, HQC level",,remaining amount,99.2%
COC(=O)C(C)n1nc(Cn2cc3cc(OCC[18F])c(Cl)cc3n2)c2ccccc2c1=O (racemic),,"rat, brain",60 min,,radiometabolite,33%
Cc1cc(C)n(CCN(CCN)CCCCCCNC(=O)[C@@H](N)Cc2c[nH]cn2)n1.[99Tc+].[C-]#[O+].[C-]#[O+].[C-]#[O+],,BALB/c nude mice A549 xenograft,"intravenous, 24 h",baseline: tumour over blood,tumour-to-tissue ratio,4.8
O=C(CN1CCN(CC(=O)NCc2ncccc2O)CCN(CC(=O)NCc2ncccc2O)CCN(CC(=O)NCc2ncccc2O)CC1)NCc1ncccc1O.[177Lu+3],,"Sprague-Dawley rat, spleen","intravenous (tail vein), dose not given, 2 h",,tissue uptake,1.35 ± 0.443 % injected dose/g
O=C(O)CCCOc1ccc([18F])cc1-c1cc(-c2ccccc2C(F)(F)F)n(-c2ccccc2)n1,OLINDA/EXM from mouse data,"human adults, spleen",,,absorbed dose,8.45 µGy/MBq
CCC[C@H]1CC[C@H](c2ccc(NC(=S)NC[C@@H]3[C@@H](O)[C@@H](O)[C@H]4[C@H](O)CCCN43)cc2)CC1,,"NOD-SCID mouse, serum","ip, 30 mg/kg",,AST,223 ± 157 U/L
CC(C)OCCOCc1ccc(OCC(O)CN(N=O)C(C)C)cc1 (stereo not drawn),"duplex sequencing, measured: mutation frequency","NMRI mouse, bone marrow","oral, 98.0 mg/kg/day, 4 weeks",baseline: vehicle,fold change,1.5

# Excerpt of the above:
SMILES,test,test system,setting,how to read,quantity,value
O=C(NS(=O)(=O)c1cccs1)c1cc2ccccc2n1Cc1ccc(Br)c2ccccc12,,"KM mouse, chronic hyperuricaemia model","dose not given, day 7",,body weight,28.4 g and 30 g and 28 g and 24.4 g and 27.2 g and 28.8 g
C=CC(=O)Nc1cc(Nc2nccc(-c3cn(C)c4ccccc34)n2)c(OC)cc1N(C)CCNC,storage stability,human plasma,"270 ng/mL, 24 h, -80 °C, HQC level",,remaining amount,99.2%
COC(=O)C(C)n1nc(Cn2cc3cc(OCC[18F])c(Cl)cc3n2)c2ccccc2c1=O (racemic),,"rat, brain",60 min,,radiometabolite,33%
Cc1cc(C)n(CCN(CCN)CCCCCCNC(=O)[C@@H](N)Cc2c[nH]cn2)n1.[99Tc+].[C-]#[O+].[C-]#[O+].[C-]#[O+],,BALB/c nude mice A549 xenograft,"intravenous, 24 h",baseline: tumour over blood,tumour-to-tissue ratio,4.8
